Results collected from several papers.
A part holds a random share of what one study measured. Changes are numbered by the printed parent chain.

Block 1
Target: RING finger protein unkempt homolog, zinc fingers 1-6, SBP tag (UNK, Homo sapiens, UniProt Q9C0B0, residues 30-357)
UniProt Q9C0B0, sequence (30-357, looked up): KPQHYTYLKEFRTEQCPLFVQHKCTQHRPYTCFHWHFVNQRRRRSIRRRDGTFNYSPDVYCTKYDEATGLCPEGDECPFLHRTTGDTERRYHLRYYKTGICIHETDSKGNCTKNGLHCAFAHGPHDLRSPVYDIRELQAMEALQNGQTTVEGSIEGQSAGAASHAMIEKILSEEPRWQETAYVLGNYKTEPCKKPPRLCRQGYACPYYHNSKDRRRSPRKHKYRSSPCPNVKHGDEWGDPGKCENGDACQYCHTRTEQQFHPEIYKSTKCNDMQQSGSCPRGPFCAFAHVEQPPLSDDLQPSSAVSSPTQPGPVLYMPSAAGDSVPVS
Method: RNA Bind-n-Seq
Form: RNA
Sample: in vitro
Tested at: 100 nM
Setting: RNA with constant flanks, vertebrate orthologous sites, ends assumed
Baseline: input RNA pool
Reading: higher = stronger binding
Quantity: bound/input enrichment
Constant ends, left off below: GGGAGUUCUACAGUCCGACGAUC … CAACAGAGGAUUGAGCAUCA
CCGAAAGGCCAGAUUCCCUCCUCCCUUCUACUGCUUCUACCAACUGGAAGCACAGAAAACUAGAACUUCAUUUAUUUUGGUUUUUUUUUUUUUAAAGAUAUGUUGAUUUCUUGUAACAUC: 0.853 ratio
ACUUAAAGUCUUAAAGAAAUUAUACCGGAAUCCAGACAUUGAUUUUGCGGGGUCAGGCCAUUGGAUGGUGUUGCUGUGUUUAUUGUCUUGUUGUGUUUUUAAAAUCUGUGUACUUUGUCC: 0.998 ratio
GACCUUGGAGCUAAAACCUGGGCCGGGGGACUAGAAAAGUAAAACAAGCUUGUAAAAUGAUAGCCAUAUGCAGCUGCACAGCAGUACUAUCACUAGCACCUGUGUUAAUGUACUUACAGA: 0.382 ratio
UUACAGUCAUUGAUGGACUCUAUUUUUUUAUUAUUACUUGGACCUUGGUCGUUUUUAUACUAGCAAAAUGUCUUGUUUUAAUUUGUGUUUUUUCGGGGGGAGGGAGUGAACUUGCUGAUU: 2.5 ratio
GUCCUACCUGUGCAAACUUCACAACACUGAAUGCAAAGUAGCGAUUUCCGUAGCCACAGUAAGGUAGCUUUAGGGCACUAUUGCCAUGGUUUUACUCAUGGGCAAGUUUUGACAAUGUAU: 0.648 ratio
UGACCACUCACUGUUAUGUCUGGAUAUCUGUAAACCUUUUUUUUUUUUUUUUUGGUUCUUAGUCCUUUUUCUUGUAUAAUUGAUGUUCUCUAAAAUUGUUAAUGUAUCACAGGGCUGACA: 0.627 ratio

Block 2
Target: POU domain, class 5, transcription factor 1, POU domain (Pou5f1, Mus musculus, UniProt P20263, residues 131-289)
UniProt P20263, sequence (131-289, looked up): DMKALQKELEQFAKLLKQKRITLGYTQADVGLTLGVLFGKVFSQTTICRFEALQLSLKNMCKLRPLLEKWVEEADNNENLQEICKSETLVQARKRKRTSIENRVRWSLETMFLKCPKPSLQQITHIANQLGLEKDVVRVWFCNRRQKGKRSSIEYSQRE
Method: Spec-seq
Form: double-stranded DNA, one strand shown
Sample: in vitro
Tested at: not given
Setting: whole probe, mean of replicates
Baseline: not given
Reading: lower = stronger binding
Quantity: relative binding energy
Constant ends, left off below: GAGTCGTCTCGTCAGCAC … CCGTAGAGCACTCAGGTC
ATCGCAAT: 0.485 ln ratio
CCCGTAAT: 0.645 ln ratio
ATGCCGCA: 0.789 ln ratio
TTTATAAT: 0.168 ln ratio
TGTGTAAT: 0.642 ln ratio
GATTTAAT: 0.2 ln ratio
ATACTGAT: 0.0228 ln ratio
TTTGTAAT: 0.21 ln ratio

Block 3
Target: CCND2, cyclin fold, Cln2 fusion (human)
Method: yeast growth competition, sequencing
Sample: yeast
Setting: weak parent motif
Baseline: not given
Reading: higher = stronger binding
Quantity: normalised enrichment score
Starting sequence: PKMYT1 docking peptide (human); SFEPRNLLSLFED; partner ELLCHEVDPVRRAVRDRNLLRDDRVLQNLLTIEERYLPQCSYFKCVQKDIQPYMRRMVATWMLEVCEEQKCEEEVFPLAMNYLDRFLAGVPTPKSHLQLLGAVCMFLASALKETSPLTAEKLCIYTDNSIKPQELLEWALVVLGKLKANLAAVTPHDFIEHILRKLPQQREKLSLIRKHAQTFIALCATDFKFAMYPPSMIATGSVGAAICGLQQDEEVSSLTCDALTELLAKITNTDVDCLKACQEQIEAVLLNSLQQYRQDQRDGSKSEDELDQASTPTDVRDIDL
E3W: 0.0185
E3M: 0.265
F2E: 0.0545
N6M: -0.235
P4V: -0.00824
N6K: 0.156
D13I: 0.0691

Other studies, line by line
PhoQ, residues 284 288 289 292 302 303 SSCCRF
fold induction (PhoP, residues 12 14 15 18 19 LHTVM (Escherichia coli, UniProt P23836); Sort-seq, item: YFP reporter; E. coli; PhoQ-PhoP variant library, with: 10 µM Mg2+; baseline: high Mg2+ state, higher = stronger signaling): 18.3

For quick reference, copied from above (block 1):
UGACCACUCACUGUUAUGUCUGGAUAUCUGUAAACCUUUUUUUUUUUUUUUUUGGUUCUUAGUCCUUUUUCUUGUAUAAUUGAUGUUCUCUAAAAUUGUUAAUGUAUCACAGGGCUGACA: 0.627 ratio
GUCCUACCUGUGCAAACUUCACAACACUGAAUGCAAAGUAGCGAUUUCCGUAGCCACAGUAAGGUAGCUUUAGGGCACUAUUGCCAUGGUUUUACUCAUGGGCAAGUUUUGACAAUGUAU: 0.648 ratio
